Measurements from different studies.
Every numbered part comes from another study and shows a few of its results, in no order.
Sequence of UniProt P49761 (whole entry, looked up): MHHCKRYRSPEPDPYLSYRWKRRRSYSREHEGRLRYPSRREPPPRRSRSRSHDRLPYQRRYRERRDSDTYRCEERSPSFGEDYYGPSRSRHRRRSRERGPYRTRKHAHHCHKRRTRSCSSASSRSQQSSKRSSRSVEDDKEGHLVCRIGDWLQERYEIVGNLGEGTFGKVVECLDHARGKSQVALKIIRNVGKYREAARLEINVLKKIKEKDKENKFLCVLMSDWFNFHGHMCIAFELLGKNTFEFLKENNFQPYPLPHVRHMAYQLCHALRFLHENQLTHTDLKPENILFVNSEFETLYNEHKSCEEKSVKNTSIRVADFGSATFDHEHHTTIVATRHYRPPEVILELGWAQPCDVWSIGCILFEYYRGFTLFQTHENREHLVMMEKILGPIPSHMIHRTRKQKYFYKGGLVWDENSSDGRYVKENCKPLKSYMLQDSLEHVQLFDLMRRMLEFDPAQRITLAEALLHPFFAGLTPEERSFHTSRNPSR
Sequence of UniProt Q9Y2H9 (whole entry, looked up): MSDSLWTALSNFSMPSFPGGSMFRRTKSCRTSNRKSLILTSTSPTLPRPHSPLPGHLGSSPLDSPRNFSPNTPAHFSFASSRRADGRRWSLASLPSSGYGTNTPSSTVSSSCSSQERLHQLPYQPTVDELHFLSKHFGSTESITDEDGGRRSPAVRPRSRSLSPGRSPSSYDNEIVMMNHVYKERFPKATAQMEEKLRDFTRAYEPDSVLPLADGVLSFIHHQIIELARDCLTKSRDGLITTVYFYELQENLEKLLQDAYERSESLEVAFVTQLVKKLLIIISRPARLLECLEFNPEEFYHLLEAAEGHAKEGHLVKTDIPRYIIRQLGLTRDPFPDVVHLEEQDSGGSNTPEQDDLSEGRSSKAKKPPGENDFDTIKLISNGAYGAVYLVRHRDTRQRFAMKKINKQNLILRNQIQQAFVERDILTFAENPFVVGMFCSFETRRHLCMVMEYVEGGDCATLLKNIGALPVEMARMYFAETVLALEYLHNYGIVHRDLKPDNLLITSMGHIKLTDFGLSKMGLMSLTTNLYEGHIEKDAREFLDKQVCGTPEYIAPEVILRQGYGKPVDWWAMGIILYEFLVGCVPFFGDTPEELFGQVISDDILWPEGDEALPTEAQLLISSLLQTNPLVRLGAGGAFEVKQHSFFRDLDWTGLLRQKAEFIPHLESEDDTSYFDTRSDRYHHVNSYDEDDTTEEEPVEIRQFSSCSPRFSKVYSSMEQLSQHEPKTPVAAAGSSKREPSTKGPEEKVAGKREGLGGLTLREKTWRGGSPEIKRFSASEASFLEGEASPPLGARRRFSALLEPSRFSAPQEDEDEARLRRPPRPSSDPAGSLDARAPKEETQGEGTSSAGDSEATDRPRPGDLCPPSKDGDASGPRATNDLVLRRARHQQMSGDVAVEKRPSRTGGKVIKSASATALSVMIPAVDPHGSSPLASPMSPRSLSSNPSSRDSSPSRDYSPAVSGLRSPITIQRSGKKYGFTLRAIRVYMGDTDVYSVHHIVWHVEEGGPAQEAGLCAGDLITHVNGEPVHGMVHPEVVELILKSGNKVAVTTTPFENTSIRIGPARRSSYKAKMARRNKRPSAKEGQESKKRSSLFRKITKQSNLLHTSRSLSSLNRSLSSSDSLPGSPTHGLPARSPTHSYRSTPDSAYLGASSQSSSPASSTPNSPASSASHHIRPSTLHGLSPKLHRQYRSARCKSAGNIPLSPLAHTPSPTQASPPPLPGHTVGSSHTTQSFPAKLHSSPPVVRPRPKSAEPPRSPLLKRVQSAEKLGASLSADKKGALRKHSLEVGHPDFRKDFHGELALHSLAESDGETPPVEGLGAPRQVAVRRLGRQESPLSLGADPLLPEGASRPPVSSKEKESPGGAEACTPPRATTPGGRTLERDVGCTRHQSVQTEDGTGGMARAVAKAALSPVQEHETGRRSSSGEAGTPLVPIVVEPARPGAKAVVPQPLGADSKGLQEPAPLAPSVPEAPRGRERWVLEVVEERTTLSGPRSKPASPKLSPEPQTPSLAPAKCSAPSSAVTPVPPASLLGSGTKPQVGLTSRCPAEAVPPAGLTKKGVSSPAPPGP
Sequence of UniProt Q96PY6 (whole entry, looked up): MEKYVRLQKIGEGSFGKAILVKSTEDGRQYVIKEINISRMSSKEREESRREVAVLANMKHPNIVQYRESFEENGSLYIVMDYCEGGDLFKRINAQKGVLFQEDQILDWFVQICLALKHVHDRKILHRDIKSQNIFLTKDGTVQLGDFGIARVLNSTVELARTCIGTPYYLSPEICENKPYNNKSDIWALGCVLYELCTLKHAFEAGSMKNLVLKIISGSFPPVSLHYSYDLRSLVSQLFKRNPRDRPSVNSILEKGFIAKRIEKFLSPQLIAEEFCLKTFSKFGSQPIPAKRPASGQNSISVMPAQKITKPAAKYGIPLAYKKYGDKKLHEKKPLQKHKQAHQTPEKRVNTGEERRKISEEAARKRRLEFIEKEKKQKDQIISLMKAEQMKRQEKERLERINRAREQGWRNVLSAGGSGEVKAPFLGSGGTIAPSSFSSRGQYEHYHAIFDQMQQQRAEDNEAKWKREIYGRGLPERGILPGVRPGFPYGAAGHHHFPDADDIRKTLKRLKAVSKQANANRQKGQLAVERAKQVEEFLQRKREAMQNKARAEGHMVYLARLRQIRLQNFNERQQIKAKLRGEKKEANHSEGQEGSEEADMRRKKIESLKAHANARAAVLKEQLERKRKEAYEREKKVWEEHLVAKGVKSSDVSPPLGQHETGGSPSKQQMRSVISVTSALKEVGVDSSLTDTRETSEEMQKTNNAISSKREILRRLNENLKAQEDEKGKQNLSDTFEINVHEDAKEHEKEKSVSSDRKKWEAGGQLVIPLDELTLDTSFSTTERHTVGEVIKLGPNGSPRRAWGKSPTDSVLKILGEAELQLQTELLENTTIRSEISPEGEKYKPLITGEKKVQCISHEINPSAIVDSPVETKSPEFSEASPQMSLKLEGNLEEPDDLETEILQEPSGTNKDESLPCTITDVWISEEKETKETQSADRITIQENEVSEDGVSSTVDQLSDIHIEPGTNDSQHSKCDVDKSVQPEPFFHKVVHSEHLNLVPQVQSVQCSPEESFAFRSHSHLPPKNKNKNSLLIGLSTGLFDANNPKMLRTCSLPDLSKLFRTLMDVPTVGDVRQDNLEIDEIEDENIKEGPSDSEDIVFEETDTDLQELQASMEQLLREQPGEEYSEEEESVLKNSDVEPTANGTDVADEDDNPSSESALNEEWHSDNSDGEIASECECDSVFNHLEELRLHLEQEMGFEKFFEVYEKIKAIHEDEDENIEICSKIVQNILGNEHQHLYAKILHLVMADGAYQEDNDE
Sequence of UniProt O14936 (whole entry, looked up): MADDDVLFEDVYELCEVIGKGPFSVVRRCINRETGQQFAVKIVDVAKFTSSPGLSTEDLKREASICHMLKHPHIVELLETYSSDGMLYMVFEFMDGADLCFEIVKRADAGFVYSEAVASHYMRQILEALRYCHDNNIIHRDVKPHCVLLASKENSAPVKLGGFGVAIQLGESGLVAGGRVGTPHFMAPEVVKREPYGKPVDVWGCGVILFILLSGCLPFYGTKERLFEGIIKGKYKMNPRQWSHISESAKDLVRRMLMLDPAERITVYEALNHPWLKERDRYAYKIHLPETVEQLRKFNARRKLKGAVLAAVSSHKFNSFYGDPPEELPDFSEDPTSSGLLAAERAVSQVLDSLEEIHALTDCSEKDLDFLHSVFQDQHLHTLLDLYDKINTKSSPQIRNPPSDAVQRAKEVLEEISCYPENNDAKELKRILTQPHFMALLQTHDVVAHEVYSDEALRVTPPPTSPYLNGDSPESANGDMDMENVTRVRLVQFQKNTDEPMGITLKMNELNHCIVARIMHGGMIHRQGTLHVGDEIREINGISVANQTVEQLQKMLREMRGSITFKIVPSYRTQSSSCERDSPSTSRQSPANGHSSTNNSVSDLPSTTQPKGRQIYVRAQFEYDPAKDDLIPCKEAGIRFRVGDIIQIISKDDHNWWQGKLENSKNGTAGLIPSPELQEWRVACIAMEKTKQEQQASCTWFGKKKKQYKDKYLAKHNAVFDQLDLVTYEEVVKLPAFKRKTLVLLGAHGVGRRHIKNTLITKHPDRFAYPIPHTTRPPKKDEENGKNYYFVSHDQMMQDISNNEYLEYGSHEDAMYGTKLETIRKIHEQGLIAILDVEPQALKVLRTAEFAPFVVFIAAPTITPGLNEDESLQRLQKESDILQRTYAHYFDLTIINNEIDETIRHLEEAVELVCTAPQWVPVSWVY

Series 1
Target: Diamine acetyltransferase 1 (Homo sapiens, UniProt P21673)
Mode: inhibitor
Tested at: 10 µM
Reference: control
Endpoint: remaining activity
Residues (P21673 1-171): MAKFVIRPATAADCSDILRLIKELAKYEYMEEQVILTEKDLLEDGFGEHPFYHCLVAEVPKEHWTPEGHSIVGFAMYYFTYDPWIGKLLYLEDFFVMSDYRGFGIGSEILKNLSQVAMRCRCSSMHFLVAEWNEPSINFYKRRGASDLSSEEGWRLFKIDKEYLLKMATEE
C[C@@H]1O[C@@H](O[C@H]2[C@H](OC(=O)[C@]34CCC(C)(C)C[C@H]3C3=CC[C@@H]5[C@@]6(C)C[C@H](O)[C@H](O[C@@H]7O[C@H](CO)[C@@H](O)[C@H](O)[C@H]7O)C(CO)(CO)[C@@H]6CC[C@@]5(C)[C@]3(C)C[C@H]4O)OC[C@H](O)[C@@H]2O)[C@H](O)[C@H](O)[C@H]1O[C@@H]1OC[C@@H](O)[C@H](O[C@@H]2OC[C@](O)(CO)[C@H]2O)[C@H]1O: 101%
COc1ccc(-c2cc(=O)c3c(O)c(OC)c(O)cc3o2)cc1OC: 99.1%
COc1cc(O)ccc1CCC(=O)c1ccc(O)cc1: 98.9%
C=CC(C)(O)CCC=C(C)CCC=C(C)C (mixture of isomers): 90.1%
C[C@H]1[C@H](C)CC[C@]2(C(=O)O)CC[C@]3(C)C(=CC[C@@H]4[C@@]5(C)CC[C@H](O)C(C)(C)[C@@H]5CC[C@]43C)[C@H]12: 99.5%
C/C=C(/C)C(=O)O[C@H]1Cc2cc3ccc(=O)oc3cc2OC1(C)C: 121%
O=C(/C=C/c1ccc(O)cc1)NCCc1ccc(O)cc1: 82%
C[C@H](CCC(=O)O)[C@H]1CC(=O)[C@@]2(C)C3=C(C(=O)C[C@]12C)[C@@]1(C)CCC(=O)C(C)(C)[C@@H]1C[C@@H]3O: 104%
C[N+](C)(C)CC(=O)O: 98.1%

Series 2
Target: Calcium/calmodulin-dependent protein kinase type II subunit alpha (CAMK2A, Homo sapiens, UniProt Q9UQM7)
Sequence of UniProt Q9UQM7 (whole entry, looked up): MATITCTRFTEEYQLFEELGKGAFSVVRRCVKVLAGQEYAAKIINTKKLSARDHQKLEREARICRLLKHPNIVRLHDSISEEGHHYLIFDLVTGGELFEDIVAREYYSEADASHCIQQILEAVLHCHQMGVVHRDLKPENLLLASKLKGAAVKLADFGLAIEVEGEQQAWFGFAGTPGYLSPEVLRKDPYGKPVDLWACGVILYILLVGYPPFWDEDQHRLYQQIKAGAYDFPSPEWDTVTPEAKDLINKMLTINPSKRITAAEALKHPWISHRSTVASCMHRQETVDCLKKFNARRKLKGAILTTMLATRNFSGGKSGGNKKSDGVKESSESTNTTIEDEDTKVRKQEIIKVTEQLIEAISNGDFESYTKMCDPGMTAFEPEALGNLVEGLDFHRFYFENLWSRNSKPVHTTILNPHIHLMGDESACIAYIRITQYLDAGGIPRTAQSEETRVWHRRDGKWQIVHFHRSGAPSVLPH
Read-out: enzyme activity
Mode: inhibitor
Tested at: 10 µM
Endpoint: inhibition
O=C(O)COCCN1CCN(C(c2ccccc2)c2ccc(Cl)cc2)CC1 (stereo not shown): -1%
C[C@H]1C[C@H]2[C@@H]3CCC4=CC(=O)C=C[C@]4(C)[C@@]3(F)[C@@H](O)C[C@]2(C)[C@@]1(O)C(=O)CO: -5%
NC(=O)c1cn(Cc2c(F)cccc2F)nn1: 1%
CCOc1ccc2nc(SCCN3CCOCC3)[nH]c2c1: -9%
CCCCN1CCCC[C@H]1C(=O)Nc1c(C)cccc1C: -6%
COc1cc(CCC(=O)O)ccc1O: -18%
O=C(O)c1cc(O)c2c(c1)[C@H]([C@H]1c3cc(C(=O)O)cc(O)c3C(=O)c3c(O[C@@H]4O[C@H](CO)[C@@H](O)[C@H](O)[C@H]4O)cccc31)c1cccc(O[C@@H]3O[C@H](CO)[C@@H](O)[C@H](O)[C@H]3O)c1C2=O: 5%
CC1=C[C@]23C(=O)[C@@H](C=C(CO)[C@@H](O)[C@]2(O)[C@H]1O)[C@H]1[C@@H](C[C@H]3C)C1(C)C: -8%
CNc1ncc(-c2ccc3c(=O)c(C(=O)O)cn(C4CC4)c3c2C)cc1C: -12%
C=CCS[S+]([O-])CC=C (stereo not shown): -42%

Series 3
SMILES: CNC(=O)Nc1ccc2c(c1)[C@@]1(CC2)OC(=O)N(CC(=O)N(Cc2ccc(F)cc2)[C@@H](C)C(F)(F)F)C1=O
Read-out: cell-free assay
Method: competition with immobilised ligand
Tested at: 1 µM
Endpoint: remaining binding
PAK6 (Homo sapiens, UniProt Q9NQU5): 100%
MAP2K5 (Homo sapiens, UniProt Q13163): 89%
Tyrosine-protein kinase JAK1, JH1 (JAK1, Homo sapiens, UniProt P23458): 93%
MINK1 (Homo sapiens, UniProt Q8N4C8): 78%
ITK (Homo sapiens, UniProt Q08881): 92%
CASK (Homo sapiens, UniProt O14936): 66%
MAP3K2 (Homo sapiens, UniProt Q9Y2U5): 100%
BTK (Homo sapiens, UniProt Q06187): 97%
Ribosomal protein S6 kinase alpha-1, C-terminal kinase domain (RPS6KA1, Homo sapiens, UniProt Q15418): 100%
MARK2 (Homo sapiens, UniProt Q7KZI7): 100%
NEK9 (Homo sapiens, UniProt Q8TD19): 95%
CDK8 (Homo sapiens, UniProt P49336): 96%
STK25 (Homo sapiens, UniProt O00506): 100%
TBK1 (Homo sapiens, UniProt Q9UHD2): 84%
MAST1 (Homo sapiens, UniProt Q9Y2H9): 85%
RET (Homo sapiens, UniProt P07949): 93%
NEK1 (Homo sapiens, UniProt Q96PY6): 100%
NIM1K (Homo sapiens, UniProt Q8IY84): 76%
Tyrosine-protein kinase ABL1, phosphorylated (ABL1, Homo sapiens, UniProt P00519, F317I): 73%
CLK3 (Homo sapiens, UniProt P49761): 84%
GRK3 (Homo sapiens, UniProt P35626): 100%
NTRK1 (Homo sapiens, UniProt P04629): 41%

Series 4
Method: PRP chromatography estimate
Sample: 1,9-decadiene/PBS
pH: 7.4
Endpoint: logD
CC(C)C[C@@H]1NC(=O)[C@H](Cc2cscn2)NC(=O)[C@H](CCC(=O)N2CCCC2)NC(=O)[C@H](CC(C)C)NC(=O)[C@@H](Cc2cscn2)NC(=O)[C@H](CC(C)C)NC(=O)[C@@H](CC(C)C)NC1=O: -0.904
CC(C)C[C@@H]1NC(=O)[C@H](C)NC(=O)[C@@H](CC(C)C)NC(=O)[C@H](C)NC(=O)[C@H](CC(C)C)NC(=O)[C@H](CC(C)C)NC(=O)[C@@H](CC(C)C)NC1=O: -0.109
CC(C)C[C@@H]1NC(=O)[C@H](C)NC(=O)[C@@H](CC(C)C)NC(=O)[C@@H](CC(C)C)NC(=O)[C@@H](Cc2cscn2)NC(=O)[C@H](CC(C)C)NC(=O)[C@@H](CC(C)C)NC1=O: 0.508
CC(C)C[C@@H]1NC(=O)[C@H](CC(C)C)NC(=O)[C@@H](CC(C)C)NC(=O)[C@H](C(C)C)NC(=O)[C@@H](Cc2cscn2)NC(=O)[C@@H](CC(C)C)NC(=O)[C@H](C)NC1=O: -0.347
CC(C)C[C@@H]1NC(=O)[C@@H](C)NC(=O)[C@H](C)NC(=O)[C@@H](C(C)C)NC(=O)[C@H](C(C)C)NC(=O)[C@H](CC(C)C)NC(=O)[C@@H](CC(C)C)NC1=O: -1.18
CC(C)C[C@@H]1NC(=O)[C@H](CCC(=O)N2CCCC2)NC(=O)[C@H](CCC(=O)N2CCCC2)NC(=O)[C@@H](CCC(=O)N2CCCC2)NC(=O)[C@H](CC(C)C)NC(=O)[C@@H](CC(C)C)NC(=O)[C@H](CC(C)C)NC1=O: -1.57
CC(C)C[C@@H]1NC(=O)[C@H](C)NC(=O)[C@H](C)NC(=O)[C@H](CCC(=O)N2CCCC2)NC(=O)[C@H](CC(C)C)NC(=O)[C@H](CC(C)C)NC(=O)[C@@H](CC(C)C)NC1=O: -1.91
CC(C)C[C@@H]1NC(=O)[C@H](C(C)C)NC(=O)[C@H](C)NC(=O)[C@@H](CC(C)C)NC(=O)[C@@H](CCC(=O)N2CCCC2)NC(=O)[C@H](CC(C)C)NC(=O)[C@@H](CC(C)C)NC1=O: -0.472
CC(C)C[C@@H]1NC(=O)[C@H](C)NC(=O)[C@H](Cc2cscn2)NC(=O)[C@H](CCC(=O)N2CCCC2)NC(=O)[C@H](CC(C)C)NC(=O)[C@H](CC(C)C)NC(=O)[C@@H](CC(C)C)NC1=O: -1.4
CC(C)C[C@@H]1NC(=O)[C@H](CC(C)C)NC(=O)[C@@H](C(C)C)NC(=O)[C@H](CC(C)C)NC(=O)[C@@H](Cc2cscn2)NC(=O)[C@H](Cc2cscn2)NC(=O)[C@H](CCC(=O)N2CCCC2)NC1=O: -1.39
CCC[C@H]1NC(=O)CSC[C@@H](C(=O)OCC)N(C)C(=O)[C@H](CC(C)C)NC(=O)[C@@H](C)N(C)C(=O)[C@H](CC(C)C)NC(=O)[C@H](C)N(C)C(=O)[C@H]2CCCN2C(=O)[C@@H](CC(C)C)NC(=O)CN(C)C1=O: -0.448
